# Published values of several laboratories.
# Protocols differ between the studies behind these lines. Values joined by “and” are separate records of one study, mostly repeats; a detail may differ. ± marks the error that the study gave.
Structure (SMILES),test,test system,setting,tissue uptake
CC(C)c1noc(C2CCN(c3ncnc(Nc4ccc(OCC[18F])cc4)c3[N+](=O)[O-])CC2)n1,ex vivo biodistribution after PET,"C57BL/J male mice, liver",60 min,3.37 ± 1.02 %ID/g
N#C[C@@H]1CCCN1C(=O)CNC(=O)c1ccnc2ccc(OCCCN3CCN(C(=O)CCc4ccc(O)c(CN5CCN6CC(=O)[O][Al-]([18F])([O]C(=O)C5)[O]c5ccc(CCC(=O)N7CCN(CCCOc8ccc9nccc(C(=O)NCC(=O)N%10CCC[C@H]%10C#N)c9c8)CC7)cc5C6)c4)CC3)cc12 (stereo partly shown),,"BALB/c nude mice, U-87 MG xenograft, spleen",2 h,0.94 ± 0.17 %ID/g
COc1ccc(Nc2nc(Nc3ccc(OCCOCC[18F])cc3)ncc2Br)cc1,,"ICR mice, S180 tumour, spleen","intravenous, 30 min, added: PF-562271 33 mg/kg oral 1 h before",2.53 ± 0.14 %ID/g
CC[C@H](C)[C@H](NC(=O)C[C@H](NC(=O)CN1CCN2CCN(CC1)CC(=O)[O][Al]([18F])[O]C(=O)C2)C(=O)O)C(=O)N[C@H]1CCc2cccc3c2N(C1=O)[C@H](C(=O)NCc1cn[nH]n1)C3,,"C57BL/6J mice, MC-38 tumour, anti-PD-1 treated, liver",0.5 h,1.02 ± 0.36 %ID/g
Cc1nc(N)nc2c1C(=O)N[C@@H](c1ccc(F)cc1-c1cccc(OCC[18F])n1)C2,ex vivo biodistribution,"C57BL/6 mice, muscle","intravenous, 1 MBq, 30 min",31.8 ± 1.1 %ID
CC(C)C[C@H](NC(=O)[C@@H](CCCCNC(=O)[C@@H](Cc1ccccc1)NC(=O)CCCCCCCNC(=O)CN1CCN(CC(=O)O)CCN(CC(=O)O)CCN(CC(=O)O)CC1)NC(=O)[C@H](Cc1ccc(O)cc1)NC(=O)[C@H](CO)NC(=O)[C@H](Cc1c[nH]c2ccccc12)NC(=O)[C@H](Cc1c[nH]cn1)NC(=O)[C@@H]1CCC(=O)N1)C(=O)N[C@@H](CCCNC(=N)N)C(=O)N1CCC[C@H]1C(=O)NCC(N)=O [indium-111 labelled],biodistribution,"male athymic nude mice, DU-145 prostate cancer xenograft, lung","intravenous, 0.037 MBq, 4 h post-injection",0.12 ± 0.08 %ID/g
COc1ccc(Nc2nc(Nc3ccc(OCCOCCOCC[18F])cc3)ncc2Br)cc1,,"ICR mice, S180 tumour-bearing, brain","intravenous, 370 kBq, 60 min",2.5 ± 0.12 %ID/g
CC(=O)N([O-])CCCCCNC(=O)CCC(=O)N([O-])CCCCCNC(=O)CCC(=O)N([O-])CCCCCN.[89Zr+4],gamma counting,"healthy Balb/c mice, plasma","intravenous, 4 h, 89Zr-labelled complex",0.09 ± 0.04 %ID/g
O=C(NCC1OC2CCC=CCCC2O1)c1ccc([18F])nc1 (stereo not shown),,"healthy female BALB/c nude mice, bladder","intravenous, 7.4 MBq per mouse, 10 min",3.2 ± 0.7 %ID/g
Cc1cc(C)n(CCN(CCN)CCCCCCNC(=O)[C@@H](N)Cc2c[nH]cn2)n1.[99Tc+].[C-]#[O+].[C-]#[O+].[C-]#[O+],,"BALB/c nude mice, A549 xenograft, muscle","intravenous, 15 min",0.58 ± 0.1 %IA/g
CN(O)C(=O)CCC(=O)NCCCN(CCCCN(CCCNC(=O)CCC(=O)N(C)O)C(=O)CCC(=O)N(C)O)C(=O)CCC(=O)N(C)O.[89Zr],gamma counting,"healthy Balb/c mice, adrenal","intravenous, 24 h, 89Zr-labelled complex",0.03 %ID/g
O=C(NCC1OC2CCC=CCCC2O1)c1ccc(COCCOCCOCC[18F])cc1 (stereo not shown),,"healthy female BALB/c nude mice, kidneys","intravenous, 7.4 MBq per mouse, 30 min",9 ± 1.5 %ID/g
COc1ccc2c(c1)C(C)(C)C(/C=C/C1=C(Oc3ccc(C(=O)NCCCCOc4cc(CN(Cc5ccccn5)Cc5ccccn5)cc(CN(Cc5ccccn5)Cc5ccccn5)c4)cc3)C(=C/C=C3/N(CCCCS(=O)(=O)[O-])c4ccc(OC)cc4C3(C)C)CCC1)=[N+]2CCCCS(=O)(=O)[O-].O=[N+]([O-])[O-].O=[N+]([O-])[O-].[99Tc+].[C-]#[O+].[C-]#[O+].[C-]#[O+].[Zn+2],,"BALB/c mice, healthy, urine and bladder",12 h post-injection,0.76 %ID/g and 0.58 %ID/g and 2.41 %ID/g

# Repeated from above:
Structure (SMILES),test,test system,setting,tissue uptake
CC(=O)N([O-])CCCCCNC(=O)CCC(=O)N([O-])CCCCCNC(=O)CCC(=O)N([O-])CCCCCN.[89Zr+4],gamma counting,"healthy Balb/c mice, plasma","intravenous, 4 h, 89Zr-labelled complex",0.09 ± 0.04 %ID/g
O=C(NCC1OC2CCC=CCCC2O1)c1ccc(COCCOCCOCC[18F])cc1 (stereo not shown),,"healthy female BALB/c nude mice, kidneys","intravenous, 7.4 MBq per mouse, 30 min",9 ± 1.5 %ID/g
